Assay results of several laboratories.
Numbered parts are unrelated; each lists some results of a single study. Changes are numbered by the printed parent chain.

Block 1
Target: Interferon regulatory factor 7, full length, phosphomimetic (IRF7, Homo sapiens, UniProt Q92985, residues 1-503, S101K/S471D/S472D/S475D/S476D/S477D/S483D/S484D/S487D)
Sequence of UniProt Q92985 (whole entry, unmodified, looked up): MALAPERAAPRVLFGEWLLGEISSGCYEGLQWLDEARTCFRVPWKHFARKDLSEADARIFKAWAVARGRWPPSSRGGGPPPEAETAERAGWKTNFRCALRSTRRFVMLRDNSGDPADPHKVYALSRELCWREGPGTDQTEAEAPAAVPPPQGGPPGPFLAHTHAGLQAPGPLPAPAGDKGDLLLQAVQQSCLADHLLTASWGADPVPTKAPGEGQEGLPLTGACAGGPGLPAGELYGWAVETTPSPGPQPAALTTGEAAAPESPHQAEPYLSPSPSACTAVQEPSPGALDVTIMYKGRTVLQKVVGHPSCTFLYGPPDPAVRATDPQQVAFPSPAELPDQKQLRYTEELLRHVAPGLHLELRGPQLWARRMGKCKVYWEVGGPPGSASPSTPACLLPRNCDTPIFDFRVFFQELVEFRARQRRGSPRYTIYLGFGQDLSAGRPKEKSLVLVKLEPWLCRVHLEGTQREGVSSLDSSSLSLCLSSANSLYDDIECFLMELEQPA
Method: protein-binding microarray
Form: double-stranded DNA, one strand shown
Medium: in vitro
Tested at: 250 nM
Setting: 60-bp whole probe
Together with: salmon DNA 0.4 mg/ml
Reference: random background probes
Reading: higher = stronger binding
Shared flanks, not repeated: GCCTAGCAC … GTCTTGATTCGCTTGACGCTGCTG
Strand | log fluorescence
TTAGGTTTCGGTTTCCGTTAGTGCTAG | 14.9 z-score
GACGATATCGACTTTCGGGACGTGCTA | 0.245 z-score
GACGGTTTCGACACCGGGGACGTGCTA | 3.33 z-score
TTAGAACTGCTTCTCCTTTAGTGCTAG | 0.391 z-score
GACGGACTGCTTTTCCGGACGTGCTAG | 0.0858 z-score
GACGGACTGGGAATGGGGACGTGCTAG | -0.321 z-score
TTCGATATCAGACTGGATTAGTGCTAG | 0.213 z-score
TCAGGTTTCTGGTTTATACTGTGCTAG | 4.58 z-score
TTAGAACTGAGGTTTCGATTAGTGCTA | 7.57 z-score
GACGGACCGCTTATCCTGACGTGCTAG | 0.00015 z-score
ATTAGTATGTTCACTATTTAAGTGCTA | 0.22 z-score
GACCATATCGGGTATCGAGACGTGCTA | 0.221 z-score
GACAATCTCAGACTGGAGACGTGCTAG | -0.283 z-score
TTAGATCTGAGTCTCGATTAGTGCTAG | 1.02 z-score

Block 2
Target: RING finger protein unkempt homolog, zinc fingers 1-6, SBP tag (UNK, Homo sapiens, UniProt Q9C0B0, residues 30-357)
Sequence of UniProt Q9C0B0 (30-357, looked up): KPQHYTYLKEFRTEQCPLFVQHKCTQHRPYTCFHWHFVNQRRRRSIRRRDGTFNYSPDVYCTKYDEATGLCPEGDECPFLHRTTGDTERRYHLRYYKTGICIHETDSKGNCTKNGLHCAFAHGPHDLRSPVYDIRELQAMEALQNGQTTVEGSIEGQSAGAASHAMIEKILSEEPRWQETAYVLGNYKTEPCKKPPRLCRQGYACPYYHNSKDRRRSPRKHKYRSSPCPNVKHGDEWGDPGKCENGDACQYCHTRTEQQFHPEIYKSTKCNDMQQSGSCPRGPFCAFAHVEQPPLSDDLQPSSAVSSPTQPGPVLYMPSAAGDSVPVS
Method: RNA Bind-n-Seq
Form: RNA
Medium: in vitro
Tested at: 100 nM
Setting: RNA with constant flanks, vertebrate orthologous sites, ends assumed
Reference: input RNA pool
Reading: higher = stronger binding
Strand | bound/input enrichment [ratio]
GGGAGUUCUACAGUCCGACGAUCCCGUUUGUAUGUACAUUAUUCACAUUCCUCUCUGUUGUGUUUGGAAAAAAACCAGACAUUUUAGCCUUUUUUAAGGUUAUUGAUUUAAUUUUAUUUGGUUGCAUGAAGUUGCCCUUAACCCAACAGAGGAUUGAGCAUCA | 0.431
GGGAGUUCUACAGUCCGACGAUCACAGCAACAGCAGAGGCUGUUUGAGCUUUGGGGAAAUGAGCUUUGCUUUUUAUUUUUGAAUAGGAUACUUUUAUAUGAUGGGUGCUUUGAGUGUGAACGCAGCAGGCUCUUCAUUUCAGACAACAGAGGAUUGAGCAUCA | 1.36
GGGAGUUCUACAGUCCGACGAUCUUUUAUUGAUCAGGUCUGUAAAUGUGUACUAAAAAAAUCAGAGUUUAUUUAUAAACAGAAUAGUUUAUUUAAAGAGAAGGUCUUUCUUCAUUGAUAUUGUGGUAUGCAUUAAUUCCAUUUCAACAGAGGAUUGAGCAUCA | 0.168
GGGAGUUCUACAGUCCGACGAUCAGGAAAUGCUGGCUGCAAACCCUCAGGAUCGUCCAGAUGCUUUUGAACUAGAACUCAGAUUAGUACAAAUUGCAUUUAAAGAUAGCAGCUGGGAAACGUGACACAUAUAUUGUUUGCAAACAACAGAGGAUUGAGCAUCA | 0.746
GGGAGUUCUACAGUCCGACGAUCCCCAGUUUGUAUGUACAUUAUUCAUAUUCCUCUCUGUUUUGUUGGAAAAAGAAAGACAUUUUAACCUUUUUUAAGGUUGUUGAUUUAAUUUCAUGUUAUUAGGUUGCAUGAUGUUGCCCUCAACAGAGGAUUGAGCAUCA | 0.248
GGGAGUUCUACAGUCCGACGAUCUGUCUUGGUUUGGGGUAGAGGGGAGGGAGGGGCAGGACAGUGUGGAAUCUCUAGGGUGUAUGGGUAGAUAGGCUGCACGGUUAGUUCUAAUUGGGCCUUUAUGUUAAAAACCUCUGGGGGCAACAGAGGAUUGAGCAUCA | 0.879

Block 3
Target: Fragile X messenger ribonucleoprotein 1, C-terminal low-complexity region (Fmr1, Mus musculus, UniProt P35922)
Method: RNA Bind-n-Seq
Form: RNA
Medium: in vitro
Tested at: 200 nM
Setting: whole 134-nt RNA, ends assumed
Together with: 150 mM LiCl
Reference: input library
Reading: higher = stronger binding
Each molecule: 7-deaza-guanosine replaces G
Strand | log2 enrichment
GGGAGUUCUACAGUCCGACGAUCCUCAAGUCCUGUGCUACACAUCGUAUGUACCGAAUCGGAAAAAAAGGAGGAGGAAAGUAUUAUGUUACGCCGUUCGGAUCUGCACUUCCAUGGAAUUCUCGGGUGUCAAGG | -0.842
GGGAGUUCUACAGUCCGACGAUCUUCUGACUCAGAAUGUGCCAAAAAGGCUUUGGAACAACUUAAUGGAUUUGAACUAGCAGGAAGACCAAUGAAAGUUGGUCAUGUUACUGAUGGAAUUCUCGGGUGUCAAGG | -3.37
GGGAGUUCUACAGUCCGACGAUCGUCCUGUGCUACACAUCGUAUGUACCGAAUCGGAAAAAAAGGAAAAAGGUUUUUUUGGAAAGUAUUAUGUUACGCCGUUCGGAUCUGCACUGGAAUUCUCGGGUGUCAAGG | -2.54
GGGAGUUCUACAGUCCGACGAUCUGGGAGGUGGAUUUUGUUUAUUUUUUUAGCUCAUUUCCAGGGGUGGGAGUUUUUUUUUAAUAUGUGUCAUGAAUAAAGUUGUUUUUGAAAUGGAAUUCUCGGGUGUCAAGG | 0.516
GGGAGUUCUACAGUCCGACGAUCUGGGAGGUGGAUUUUGUUUAUUUUUUUAGCUCAUUUCCAGGGGUGGGCAUUUUUUUUUAAUAUGUGUCAUGAAUAAAGUUGUUUUUGAAAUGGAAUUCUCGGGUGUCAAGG | -0.111
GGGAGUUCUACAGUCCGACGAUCCACAGACAACACGCACCCACACAGACACAGAGGGAAGGGGUUGGGAUGGGGACACGGUGCACAGCAGGGCGGGGUAGGACCCCAGCCCCUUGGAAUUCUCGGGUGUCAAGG | 0.0676

Block 4
Target: CCNB3, cyclin fold, Cln2 fusion (human)
Method: yeast growth competition, sequencing
Medium: yeast
Setting: weak parent motif
Reference: not given
Reading: higher = stronger binding
Starting sequence: RBL1 docking peptide (human); GSAKRRLFGEDPP
Change | normalised enrichment score
R5N | 0.432
S2D | 0.175
P13R | 0.396
S2V | 0.489
L7W | 0.488
G1C | 0.314
R5E | 0.264
E10F | 0.595
K4T | 0.293
P12Q | 0.236
G9Q | 1.01
E10H | 0.521
R5K F8L | -0.0414
G1N | 0.317
P12D | 0.777
G1F | 1.72

Block 5
Target: ABI1, truncated, D143A, DHFR fusion (Arabidopsis thaliana, UniProt P49597)
Method: DHFR PCA, dose-response
Medium: yeast
Setting: Hill fit, mean, not affinity
Together with: (+)-ABA, dose series
Reading: lower = more sensitive
Starting sequence: PYL1, truncated, DHFR fusion (Arabidopsis thaliana, UniProt Q8VZS8); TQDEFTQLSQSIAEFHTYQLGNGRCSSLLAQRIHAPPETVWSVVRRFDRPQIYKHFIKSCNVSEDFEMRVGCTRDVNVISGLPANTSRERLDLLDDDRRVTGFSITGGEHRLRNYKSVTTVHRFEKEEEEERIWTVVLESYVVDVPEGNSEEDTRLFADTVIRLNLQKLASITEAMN
Change | ABA EC50 [µM]
T101Q | 92
V137M | 349
R163A | 22.3
G23A | 7.65
G81M | 329
D144K | 42.2
S150T | 0.778
P83E | 67.4
S171F | 3.1
N61V | 2.83
P146N | 261
S42I | 70.9
I172N | 240
G23T | 11.1
D153A | 89.1

Block 6
Target: Sal-like protein 4, full length isoform B (SALL4, Homo sapiens, UniProt Q9UJQ4-2, residues 1-616)
Method: universal PBM
Form: double-stranded DNA, one strand shown
Medium: in vitro
Tested at: not given
Setting: 8-mer, flanks averaged, mean of replicates
Reading: higher = stronger binding
Strand | E-score
CGTTAGAC | 0.00399
TCTATAGA | 0.156
AGCTCAAA | 0.101
ACGTAATG | 0.177
CGGCTCTA | -0.135
GGCGACTA | -0.059
ACAGTATA | 0.221
GTAAACAA | 0.292
TGTTAGAA | 0.205
TCATACCA | 0.256
CGACTATC | -0.135
CCAGAACC | -0.128

Excerpt of the above (block 5):
Change | ABA EC50 [µM]
D144K | 42.2
S150T | 0.778
P83E | 67.4
S171F | 3.1
N61V | 2.83
P146N | 261
S42I | 70.9
